Experimental data from different studies.
Each line is one published result; not all experiments were run side by side. Values joined by “and” are separate records of one study, mostly repeats; a detail may differ.
CTSL: Procathepsin L (CTSL, Homo sapiens, UniProt P07711)
UniProt P07711, sequence (whole entry, looked up): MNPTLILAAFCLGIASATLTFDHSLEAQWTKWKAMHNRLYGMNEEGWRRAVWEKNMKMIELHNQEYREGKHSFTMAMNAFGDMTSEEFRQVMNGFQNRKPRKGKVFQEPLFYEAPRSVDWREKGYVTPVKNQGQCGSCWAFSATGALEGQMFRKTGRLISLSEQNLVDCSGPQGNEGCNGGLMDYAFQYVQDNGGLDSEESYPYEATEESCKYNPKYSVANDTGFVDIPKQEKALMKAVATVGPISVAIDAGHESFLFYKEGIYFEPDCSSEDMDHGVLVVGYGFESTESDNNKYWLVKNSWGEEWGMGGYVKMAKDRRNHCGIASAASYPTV
CDC42BPB: Serine/threonine-protein kinase MRCK beta (CDC42BPB, Homo sapiens, UniProt Q9Y5S2)
UniProt Q9Y5S2, sequence (whole entry, looked up): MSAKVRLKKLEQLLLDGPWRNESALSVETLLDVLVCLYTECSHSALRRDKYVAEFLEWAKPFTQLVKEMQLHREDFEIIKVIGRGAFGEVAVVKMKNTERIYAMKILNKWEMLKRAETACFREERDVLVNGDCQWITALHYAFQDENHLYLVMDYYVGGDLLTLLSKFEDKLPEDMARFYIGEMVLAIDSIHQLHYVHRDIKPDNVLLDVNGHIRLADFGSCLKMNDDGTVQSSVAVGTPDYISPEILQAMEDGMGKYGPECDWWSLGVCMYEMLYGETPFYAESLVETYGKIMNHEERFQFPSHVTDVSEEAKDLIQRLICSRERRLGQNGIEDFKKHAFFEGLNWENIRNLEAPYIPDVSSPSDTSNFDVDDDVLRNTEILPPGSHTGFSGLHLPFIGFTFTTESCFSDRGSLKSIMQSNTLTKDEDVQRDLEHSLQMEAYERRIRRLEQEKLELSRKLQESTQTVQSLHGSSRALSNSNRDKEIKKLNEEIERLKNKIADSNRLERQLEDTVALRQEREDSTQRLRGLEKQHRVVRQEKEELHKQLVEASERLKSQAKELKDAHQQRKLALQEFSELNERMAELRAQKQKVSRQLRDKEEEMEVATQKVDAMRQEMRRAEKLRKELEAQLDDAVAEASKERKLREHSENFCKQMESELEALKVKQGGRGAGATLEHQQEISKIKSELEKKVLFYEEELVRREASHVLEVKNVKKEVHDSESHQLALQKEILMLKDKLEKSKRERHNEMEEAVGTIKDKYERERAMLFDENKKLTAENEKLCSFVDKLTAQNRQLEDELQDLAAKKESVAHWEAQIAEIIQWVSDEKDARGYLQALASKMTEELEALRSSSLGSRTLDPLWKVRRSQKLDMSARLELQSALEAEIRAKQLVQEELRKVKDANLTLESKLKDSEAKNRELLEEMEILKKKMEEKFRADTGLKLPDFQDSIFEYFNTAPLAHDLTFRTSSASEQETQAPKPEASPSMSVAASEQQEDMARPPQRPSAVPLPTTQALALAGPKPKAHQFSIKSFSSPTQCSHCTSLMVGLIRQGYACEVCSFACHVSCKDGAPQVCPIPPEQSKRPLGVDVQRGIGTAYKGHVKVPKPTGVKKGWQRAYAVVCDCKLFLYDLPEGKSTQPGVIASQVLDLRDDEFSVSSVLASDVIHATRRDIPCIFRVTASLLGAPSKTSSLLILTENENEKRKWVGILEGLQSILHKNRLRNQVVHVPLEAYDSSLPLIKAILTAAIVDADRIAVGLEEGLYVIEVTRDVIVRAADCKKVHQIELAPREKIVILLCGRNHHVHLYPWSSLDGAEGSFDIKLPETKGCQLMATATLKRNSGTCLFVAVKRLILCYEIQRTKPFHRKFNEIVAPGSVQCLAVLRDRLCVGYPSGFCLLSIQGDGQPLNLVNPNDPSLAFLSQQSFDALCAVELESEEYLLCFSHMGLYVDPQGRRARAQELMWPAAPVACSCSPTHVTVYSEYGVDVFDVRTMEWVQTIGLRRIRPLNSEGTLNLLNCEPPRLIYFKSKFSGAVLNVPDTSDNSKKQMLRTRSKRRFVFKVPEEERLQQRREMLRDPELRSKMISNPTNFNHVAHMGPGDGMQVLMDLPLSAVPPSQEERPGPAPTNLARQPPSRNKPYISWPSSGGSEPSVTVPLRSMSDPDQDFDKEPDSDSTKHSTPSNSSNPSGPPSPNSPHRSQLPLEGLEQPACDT
DRD3: D(3) dopamine receptor (DRD3, Homo sapiens, UniProt P35462)
UniProt P29597, sequence (whole entry, looked up): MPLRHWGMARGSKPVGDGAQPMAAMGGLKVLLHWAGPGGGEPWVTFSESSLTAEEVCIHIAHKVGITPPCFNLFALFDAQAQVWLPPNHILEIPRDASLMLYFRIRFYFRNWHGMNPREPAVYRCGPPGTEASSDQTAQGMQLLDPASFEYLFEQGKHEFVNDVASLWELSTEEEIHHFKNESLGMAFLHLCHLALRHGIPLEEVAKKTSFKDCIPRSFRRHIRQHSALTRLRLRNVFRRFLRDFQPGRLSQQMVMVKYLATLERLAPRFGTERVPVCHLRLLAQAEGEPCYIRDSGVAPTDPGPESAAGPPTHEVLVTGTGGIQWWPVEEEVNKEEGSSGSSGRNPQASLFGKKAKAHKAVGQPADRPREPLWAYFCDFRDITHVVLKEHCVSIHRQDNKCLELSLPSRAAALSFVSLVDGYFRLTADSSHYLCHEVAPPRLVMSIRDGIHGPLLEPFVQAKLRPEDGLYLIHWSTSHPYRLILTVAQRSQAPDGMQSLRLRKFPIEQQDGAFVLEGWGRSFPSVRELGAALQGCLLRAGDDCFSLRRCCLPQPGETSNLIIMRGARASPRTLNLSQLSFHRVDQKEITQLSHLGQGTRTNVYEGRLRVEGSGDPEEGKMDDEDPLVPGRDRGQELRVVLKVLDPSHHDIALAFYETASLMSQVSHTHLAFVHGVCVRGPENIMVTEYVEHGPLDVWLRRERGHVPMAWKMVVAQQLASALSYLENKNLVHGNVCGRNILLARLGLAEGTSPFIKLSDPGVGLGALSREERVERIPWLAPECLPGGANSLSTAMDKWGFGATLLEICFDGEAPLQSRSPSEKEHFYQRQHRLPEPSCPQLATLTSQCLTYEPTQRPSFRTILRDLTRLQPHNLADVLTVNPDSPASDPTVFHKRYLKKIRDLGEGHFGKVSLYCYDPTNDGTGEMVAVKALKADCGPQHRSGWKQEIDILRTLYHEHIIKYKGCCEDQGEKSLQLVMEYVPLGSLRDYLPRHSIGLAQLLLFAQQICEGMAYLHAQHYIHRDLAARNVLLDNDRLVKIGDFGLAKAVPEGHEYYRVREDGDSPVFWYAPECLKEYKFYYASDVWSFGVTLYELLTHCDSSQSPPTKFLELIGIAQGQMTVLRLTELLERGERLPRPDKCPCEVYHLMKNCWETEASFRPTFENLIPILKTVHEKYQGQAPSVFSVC
UniProt P35462, sequence (whole entry, looked up): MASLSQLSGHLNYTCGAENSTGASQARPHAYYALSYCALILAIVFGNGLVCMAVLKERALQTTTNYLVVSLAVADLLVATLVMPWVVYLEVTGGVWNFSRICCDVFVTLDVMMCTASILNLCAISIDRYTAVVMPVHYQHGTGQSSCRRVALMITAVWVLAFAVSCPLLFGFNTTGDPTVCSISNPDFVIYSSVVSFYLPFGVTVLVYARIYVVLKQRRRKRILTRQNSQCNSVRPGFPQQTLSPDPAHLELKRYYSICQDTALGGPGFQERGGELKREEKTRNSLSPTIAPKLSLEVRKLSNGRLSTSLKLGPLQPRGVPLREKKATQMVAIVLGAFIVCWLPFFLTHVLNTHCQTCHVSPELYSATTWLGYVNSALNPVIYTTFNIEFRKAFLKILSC
UniProt Q8NI60, sequence (whole entry, looked up): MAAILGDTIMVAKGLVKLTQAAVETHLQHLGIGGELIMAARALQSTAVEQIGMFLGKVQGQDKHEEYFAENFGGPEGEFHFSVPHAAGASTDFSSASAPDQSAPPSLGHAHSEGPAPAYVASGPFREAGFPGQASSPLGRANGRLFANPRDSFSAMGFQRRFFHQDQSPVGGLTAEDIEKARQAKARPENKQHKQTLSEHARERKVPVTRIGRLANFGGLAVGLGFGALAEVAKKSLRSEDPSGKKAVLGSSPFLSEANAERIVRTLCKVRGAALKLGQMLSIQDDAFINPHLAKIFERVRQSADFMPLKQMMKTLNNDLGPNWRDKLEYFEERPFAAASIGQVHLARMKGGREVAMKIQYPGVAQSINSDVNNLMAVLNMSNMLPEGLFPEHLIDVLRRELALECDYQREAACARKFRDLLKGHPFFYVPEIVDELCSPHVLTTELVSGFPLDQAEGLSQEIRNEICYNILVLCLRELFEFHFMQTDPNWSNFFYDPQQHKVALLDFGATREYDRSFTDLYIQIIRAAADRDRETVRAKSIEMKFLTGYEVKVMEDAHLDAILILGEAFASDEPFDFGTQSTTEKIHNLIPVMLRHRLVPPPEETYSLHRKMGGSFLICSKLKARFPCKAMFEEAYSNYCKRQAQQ
UniProt Q9H8M2, sequence (whole entry, unmodified, looked up): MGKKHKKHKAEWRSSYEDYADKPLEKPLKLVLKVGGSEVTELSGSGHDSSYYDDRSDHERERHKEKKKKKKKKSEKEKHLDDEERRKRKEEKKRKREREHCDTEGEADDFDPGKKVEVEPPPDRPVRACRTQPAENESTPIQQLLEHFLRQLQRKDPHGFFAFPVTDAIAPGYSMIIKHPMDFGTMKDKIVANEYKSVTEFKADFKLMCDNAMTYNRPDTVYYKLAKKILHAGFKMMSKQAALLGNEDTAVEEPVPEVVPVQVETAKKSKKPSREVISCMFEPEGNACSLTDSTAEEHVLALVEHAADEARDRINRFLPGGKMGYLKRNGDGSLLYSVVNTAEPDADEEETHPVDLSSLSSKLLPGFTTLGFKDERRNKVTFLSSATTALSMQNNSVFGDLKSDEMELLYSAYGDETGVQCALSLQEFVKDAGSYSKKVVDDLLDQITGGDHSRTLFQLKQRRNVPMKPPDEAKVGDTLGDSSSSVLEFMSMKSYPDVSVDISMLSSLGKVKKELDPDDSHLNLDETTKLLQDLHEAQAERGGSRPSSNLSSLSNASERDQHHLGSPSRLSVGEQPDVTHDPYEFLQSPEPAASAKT

With `COc1ccc(O)cc1` the remaining activity was 104% (CTSL; enzyme activity, inhibitor; 100 µM).
The remaining activity of `CNc1ncc2c(/C=C/C(=O)N3CCC(OC)CC3)nn(Cc3cccc(C(F)(F)F)c3)c2n1` is reported as 86% (CDC42BPB; enzyme activity, inhibitor, radiometric; 1 µM).
With `C=CC(=O)N1CCC(COCC(=O)N2CCN(c3nc(-c4cnc(N)nc4C(F)F)nc(N4CCOC[C@@H]4C)n3)CC2)CC1` the remaining binding was 100% (Serine/threonine-protein kinase Nek6 (NEK6, Homo sapiens, UniProt Q9HC98); binding, competition with immobilised ligand; 1 µM).
With `Oc1ccc(CC2NCCc3cc(O)c(O)cc32)cc1` (stereo not shown) the remaining activity was 64.5% (CTSL; enzyme activity, inhibitor; 100 µM).
For `Cc1[nH]c(C)c(S(=O)(=O)Nc2ccc(C(F)(F)F)c(Cl)c2)c1C(=O)N1CCC(=O)C1`, the Emax was 97% (DRD3; β-arrestin recruitment, agonist; 90 min).
`CC(=O)c1cc(-c2ccccc2Cl)c2ccccn12` gave a ΔTm of 2.5 °C (Bromodomain-containing protein 9 (BRD9, Homo sapiens, UniProt Q9H8M2); thermal stability, DSF; 200 µM).
For `CC[C@H](C)[C@H](NC(=O)[C@H](CCC(N)=O)NC(=O)[C@@H](NC(=O)[C@H](CCSC)NC(=O)[C@H](CCCCN)NC(=O)[C@H](CO)NC(=O)[C@@H](NC(=O)[C@H](CCSC)NC(=O)[C@H](CC(C)C)NC(=O)[C@H](CC(N)=O)NC(=O)[C@@H](NC(=O)[C@@H](NC(=O)[C@H](CO)NC(=O)[C@H](CC(C)C)NC(=O)[C@H](C)NC(=O)[C@H](CCCNC(=N)N)NC(=O)[C@H](CCC(=O)O)NC(=O)[C@H](Cc1ccc(O)cc1)NC(=O)[C@H](Cc1ccccc1)NC(=O)[C@H](C)NC(=O)[C@H](CC(N)=O)NC(=O)[C@@H](N)CCCCN)[C@@H](C)CC)[C@@H](C)CC)[C@@H](C)O)C(C)C)C(=O)N[C@@H](CC(N)=O)C(=O)N[C@H](C(=O)O)C(C)C`, the remaining activity was 78% (Cyclin-dependent kinase 5, with p25 (CDK5, Homo sapiens, UniProt Q00535); enzyme activity, inhibitor, radiometric; 50 µM, 20 min).
`CC[C@H](C)[C@H](NC(=O)[C@@H](N)CC(C)C)C(=O)N1CCC[C@H]1C(=O)N1CCC[C@H]1C(=O)N[C@@H](Cc1ccccc1)C(=O)N[C@@H](Cc1c[nH]c2ccccc12)C(=O)N[C@@H](CCCCN)C(N)=O` has a remaining activity of 93.1% (CTSL; enzyme activity, inhibitor; 100 µM).
With `Cc1[nH]c(C)c(S(=O)(=O)Nc2cc(Cl)c(Cl)cc2Cl)c1C(=O)N1CCC(F)(F)C1` the Emax was 91% (DRD3; β-arrestin recruitment, agonist; 90 min).
`C1=C/COCc2cc(ccc2OCCN2CCCC2)Nc2nccc(n2)-c2cccc(c2)COC/1` gave a remaining binding of 92% (Epidermal growth factor receptor (EGFR, Homo sapiens, UniProt P00533, del752-759); binding; 0.1 µM).
`C=CC(=O)Nc1cccc(-c2noc([C@@]3(C)CCCc4sc(N)c(C#N)c43)n2)c1` has a KI (inactivation) of 9.75 µM and 7.29 µM and 8.86 µM (GTPase KRas (KRAS, Homo sapiens, UniProt P01116, G12C); enzyme activity, inhibitor).
`Cc1ccc(N(O)N=Nc2ccc(S(=O)(=O)Nc3cc(C)on3)cc2)cc1` gave an inhibition of 35.3% (ABTS scavenging; 120 µg/mL).
`Cc1cc([C@@H](C)Nc2ccccc2C(=O)O)c2nc(N3CCC(F)(F)CC3)c(C#N)c(=O)n2c1` has a remaining binding of 95% (Receptor tyrosine-protein kinase erbB-4 (ERBB4, Homo sapiens, UniProt Q15303); binding, competition with immobilised ligand; 1 µM).
With `O=C(Nc1ccc(Oc2nnc(-c3ccc(Cl)cc3)c3ccccc23)cc1)c1ccccc1` the cell death was 13.5% (MCF7; cell growth or viability, MTT; 78 nM).
Under “activity vs control”, `Cc1ccc(C(=O)Nc2ccc(CN3CCN(C)CC3)c(C(F)(F)F)c2)cc1C#Cc1cnc2cccnn12` is recorded as 80% and 58% (Non-receptor tyrosine-protein kinase TYK2 (TYK2, Homo sapiens, UniProt P29597); enzyme activity, inhibitor; 23.5 nM).
With `CCCCC(=O)Nc1ccc(-c2ccc3ncn(CCC)c(=O)c3c2)cn1` the remaining binding was 100% (Serine/threonine-protein kinase TAO2 (TAOK2, Homo sapiens, UniProt Q9UL54); binding, competition with immobilised ligand; 0.5 µM).
`COc1cc(O)ccc1/C=C/C(=O)c1ccc(O)cc1` gave a remaining activity of 36.7% (CTSL; enzyme activity, inhibitor; 100 µM).
`CC(=NNC(=O)c1ccccc1Cl)c1ccc(Nc2nnc(-c3ccc(Cl)cc3)c3ccccc23)cc1` has a cell death of 0.0885% (MCF7; cell growth or viability, MTT; 0.312 µM).
The remaining signal of `CN(c1nccc(-c2cnn3ncccc23)n1)C1CC1` is reported as 100% (Atypical kinase COQ8A, mitochondrial (COQ8A, Homo sapiens, UniProt Q8NI60); cell-free assay; 1 µM).
The remaining activity of `COc1cc(O)cc(O)c1C(=O)/C=C/c1ccccc1` is reported as 8.82% (CTSL; enzyme activity, inhibitor; 100 µM).
`COc1cc(-c2cncc3c2CN(C)Cc2cc(N4CCNCC4)ccc2-3)cc(OC)c1OC` gave a remaining activity of 109% (CDC42BPB; enzyme activity, inhibitor; 1 µM).
For `NC/C(=C\F)COc1cccc(Cn2c(=S)[nH]c(=O)c3[nH]cnc32)c1`, the inhibition was 73.9% (Myeloperoxidase (MPO, Homo sapiens, UniProt P05164); enzyme activity, inhibitor, fluorescence; 37 nM).
The remaining activity of `O=C(CCc1ccc(O)cc1)c1c(O)cc(O)cc1O` is reported as 89.1% (CTSL; enzyme activity, inhibitor; 100 µM).
For `Nc1ncnc2occ(-c3ccc(NC(=O)Nc4cc(C(F)(F)F)ccc4F)cc3)c12`, the remaining signal was 1.4% (Hormonally up-regulated neu tumor-associated kinase (HUNK, Homo sapiens, UniProt P57058); cell-free assay, inhibitor; 20 µM).
With `O=C1O[C@H]([C@@H](O)CO)C(O)=C1O` the inhibition was 60.8% (ABTS scavenging; 90 µg/mL).
